Assay results of several laboratories.
Protocols differ between the studies behind these lines. Numbers after ± are the reported error.

| SMILES | tested on | test | system | setting | measurement | result |
| --- | --- | --- | --- | --- | --- | --- |
| COc1cc(/C=C2\CC/C(=C\c3ccc(O)c(OC)c3)C2=O)ccc1O | dengue virus 2 | viral replication, plaque reduction | BHK-21 |  | EC50 | 5.37 ± 0.62 µM |
| CC(NC(=O)c1cn(Cc2ccc(F)cc2)cc(O)c1=O)c1ccc(F)cc1F (stereo not drawn) | Human betaherpesvirus 5 | viral replication, inhibitor |  | 7 days | EC50 | 0.53 µM |
| COC(=O)N[C@H](C(=O)N1CCC[C@H]1c1ncc(-c2ccc(-c3ccc(-c4cnc([C@@H]5CCCN5C(=O)[C@@H](NC(=O)OC)C(C)C)[nH]4)cc3)cc2)[nH]1)C(C)C | hepatitis C virus | viral replication, transient replicon | genotype 1a NS5A M28T |  | EC50 | 0.0041 ± 0.00036 µM |
| CN[C@@](C)(C[18F])C(=O)O |  |  | SCID mouse A549 xenograft, liver | 120 min, post injection | tissue uptake | 4.9 ± 0.7 %ID/g |
| O=C1/C(=N\NC(=S)NN=Cc2ccccc2)c2ccccc2N1Cc1ccccc1 | respiratory syncytial virus | viral replication | HeLa |  | EC50 | > 20 µM |
| NCCOCC(=O)NC1CCN(S(=O)(=O)c2cc(C(=O)Nc3cc(F)c(F)c(F)c3)ccc2F)CC1 | Hepatitis B virus | viral replication, inhibitor, qPCR | HePAD38 |  | EC50 | 4.89 µM |
| Clc1ccc(Cn2c(CN3CCCC3)nc3ccccc32)cc1 | Hepatitis C virus | viral replication, inhibitor | Huh7.5, GETYPE1B | 72 h, replicon | EC50 | 24 µM |
| O=C(Nc1ccc(F)cc1)Oc1ccc[nH]c1=O | Alphacoronavirus 1 | viral replication, inhibitor | CRFK |  | EC50 | > 100 µM |
| Nc1nc(F)nc2c1ncn2[C@@H]1O[C@H](COP(=O)(O)O)[C@@H](O)[C@@H]1O | human coronavirus NL63 | cytopathic effect, MTS | LLC-MK2 | 5 days | EC50 | 7.15 µM |
| Cc1ccc(S(=O)(=O)N2C(=O)CSC2c2ccccc2F)cc1 (stereo not drawn) | herpes simplex virus 1 | viral cytopathicity | HEL, KOS TK-deficient acyclovir-resistant |  | EC50 | > 100 µM |
| O=C(CN1c2c(n[nH]c2-c2cccc(Cl)c2)-c2ccccc2S1(=O)=O)NN=Cc1ccccc1[N+](=O)[O-] | HIV-1 | viral replication | PBMC |  | EC50 | > 100 µM |
| O=c1cc(OCc2ccc(I)cc2)oc2ccc(OCc3cccc(Cl)c3)c(O)c12 | Hepatitis C virus | viral replication, inhibitor | Huh-7, GETYPE1 | 96 h, replicon | EC50 | 3 to 4 µM |
| CNC(=O)c1ccc(-c2cnn3ccc(C(=O)N(C)c4ccc(Cl)c(C(=O)O)c4)cc23)cc1 | Cryptosporidium parvum | cytopathic effect | HCT-8 | 48 h | EC50 | > 20 µM |
| COc1c(C)c2c(c(O)c1C/C=C(\C)CCC(=O)O)C(=O)OC2 | Zika virus | viral cytopathic effect, MTS | Vero |  | EC50 | 1.2 µM |
| O=C(NCc1ccc(C(F)(F)F)cc1F)c1cn(Cc2ccc(F)cc2)cc(O)c1=O | Human betaherpesvirus 5 | viral replication, inhibitor |  | 7 days | EC50 | 0.54 µM |
| N#CC1(C#N)C2C=CC(c3coc4cccc2c34)C1(C#N)C#N (stereo not drawn) | Alphacoronavirus 1 | viral replication, inhibitor | CRFK |  | EC50 | 7.75 µM |
| Nc1nc(O)c2ncn(COC(CO)CO)c2n1 | human cytomegalovirus | cytopathic effect | HEL fibroblasts, Davis |  | EC50 | 1.64 ± 0.22 µM |
| Nc1ccn(C[C@@H](CO)OCP(=O)(O)O)c(=O)n1 | Human alphaherpesvirus 1 | antiviral activity | HEL, KOS, TK-deficient, acyclovir-resistant |  | EC50 | 2 ± 1.4 µM |
| Cc1cccc(-c2ccc([C@@H]3[C@@H](CO)N4CCCCN(S(=O)(=O)c5cn(C)cn5)C[C@@H]34)cc2)c1 | respiratory syncytial virus | cytopathic effect | HEp-2, A2 | 5 days, original sample | EC50 | 1.6 µM |
| Cc1ccc(S(=O)(=O)N2C(=O)CSC2c2ccccc2Cl)cc1 (stereo not drawn) | herpes simplex virus 1 | viral cytopathicity | HEL, KOS TK-deficient acyclovir-resistant |  | EC50 | > 100 µM |
| COC(=O)c1c[nH]c2cc(CN3CCN(Cc4ccccc4)CC3)ccc2c1=O | Plasmodium berghei |  | HepG2, liver stage | 44 h | EC50 | 0.044 to 0.083 µM |

For quick reference, copied from above:
| SMILES | tested on | test | system | setting | measurement | result |
| --- | --- | --- | --- | --- | --- | --- |
| COc1cc(/C=C2\CC/C(=C\c3ccc(O)c(OC)c3)C2=O)ccc1O | dengue virus 2 | viral replication, plaque reduction | BHK-21 |  | EC50 | 5.37 ± 0.62 µM |
| CC(NC(=O)c1cn(Cc2ccc(F)cc2)cc(O)c1=O)c1ccc(F)cc1F (stereo not drawn) | Human betaherpesvirus 5 | viral replication, inhibitor |  | 7 days | EC50 | 0.53 µM |
| COC(=O)N[C@H](C(=O)N1CCC[C@H]1c1ncc(-c2ccc(-c3ccc(-c4cnc([C@@H]5CCCN5C(=O)[C@@H](NC(=O)OC)C(C)C)[nH]4)cc3)cc2)[nH]1)C(C)C | hepatitis C virus | viral replication, transient replicon | genotype 1a NS5A M28T |  | EC50 | 0.0041 ± 0.00036 µM |
